Published values gathered from unrelated publications.
Numbered parts are unrelated; each lists some results of a single study.
UniProt Q04759, sequence (whole entry, looked up): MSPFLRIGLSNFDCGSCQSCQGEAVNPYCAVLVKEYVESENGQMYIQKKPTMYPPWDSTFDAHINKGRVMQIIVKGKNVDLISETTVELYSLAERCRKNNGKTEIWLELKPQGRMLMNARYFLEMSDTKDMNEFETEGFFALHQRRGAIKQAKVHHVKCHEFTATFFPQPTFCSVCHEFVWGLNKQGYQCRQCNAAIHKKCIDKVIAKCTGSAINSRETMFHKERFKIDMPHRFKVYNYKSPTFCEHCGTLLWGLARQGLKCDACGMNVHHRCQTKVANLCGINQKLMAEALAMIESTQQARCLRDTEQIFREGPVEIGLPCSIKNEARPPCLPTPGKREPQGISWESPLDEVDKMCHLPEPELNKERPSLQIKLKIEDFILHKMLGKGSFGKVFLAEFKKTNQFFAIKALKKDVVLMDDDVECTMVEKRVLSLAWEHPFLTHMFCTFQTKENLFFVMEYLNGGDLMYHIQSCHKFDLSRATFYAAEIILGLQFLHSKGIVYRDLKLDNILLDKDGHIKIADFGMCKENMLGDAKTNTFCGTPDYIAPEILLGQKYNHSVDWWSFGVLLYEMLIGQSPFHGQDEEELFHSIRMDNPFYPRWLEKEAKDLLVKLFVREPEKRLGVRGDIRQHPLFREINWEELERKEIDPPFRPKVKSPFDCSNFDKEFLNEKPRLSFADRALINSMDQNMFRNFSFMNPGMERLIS

Study 1
Target: Interferon regulatory factor 7, full length, phosphomimetic (IRF7, Homo sapiens, UniProt Q92985, residues 1-503, S471D/S472D/S475D/S476D/S477D/S483D/S484D/S487D)
UniProt Q92985, sequence (whole entry, unmodified, looked up): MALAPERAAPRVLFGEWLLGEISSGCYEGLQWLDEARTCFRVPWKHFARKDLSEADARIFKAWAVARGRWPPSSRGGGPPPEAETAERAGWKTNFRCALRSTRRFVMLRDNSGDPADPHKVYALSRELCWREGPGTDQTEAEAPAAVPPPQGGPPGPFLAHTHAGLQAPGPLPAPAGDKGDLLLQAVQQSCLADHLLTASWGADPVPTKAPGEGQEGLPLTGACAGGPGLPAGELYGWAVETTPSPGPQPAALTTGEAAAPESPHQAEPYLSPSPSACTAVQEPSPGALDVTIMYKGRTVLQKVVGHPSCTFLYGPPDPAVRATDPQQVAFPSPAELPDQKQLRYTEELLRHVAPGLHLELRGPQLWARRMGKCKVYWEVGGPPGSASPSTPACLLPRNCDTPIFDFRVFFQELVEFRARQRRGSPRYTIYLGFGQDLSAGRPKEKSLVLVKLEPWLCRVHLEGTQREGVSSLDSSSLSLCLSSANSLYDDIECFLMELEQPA
Technique: protein-binding microarray
Form: double-stranded DNA, one strand shown
Sample: in vitro
Concentration: 2200 nM top
Setting: 60-bp whole probe
Together with: salmon DNA 0.4 mg/ml
Reference: random background probes
Reading: higher = stronger binding
Constant ends, left off below: GCCTAGCAC … GTCTTGATTCGCTTGACGCTGCTG
| Strand | fitted relative affinity |
| --- | --- |
| GACGAACTGGAGTATCGAGACGTGCTA | -0.455 z-score |
| ATCCCGCCTGCCCCACAGAAGTGCTAG | 0.724 z-score |
| TTAGGACTGGACACTGGGATAGTGCTA | -0.691 z-score |
| TTAGATCTCAGTATCGACTAGTGCTAG | 0.0503 z-score |
| CAGGGTCTCGCTTCATCTCCGTGCTAG | 0.782 z-score |
| TTTGAACTGGGGACTGGATTAGTGCTA | -0.047 z-score |
| TCAAGCCTCCATTTTTAACTGTGCTAG | 0.735 z-score |
| GACGGTTTCCTTTCCCTGATGTGCTAG | 4.4 z-score |

Study 2
Target: TAR DNA-binding protein 43, full length, His tag (TARDBP, Homo sapiens, UniProt Q13148, residues 1-414)
Technique: RNA Bind-n-Seq
Form: RNA
Sample: in vitro
Concentration: 20 nM
Setting: 6-mer, flanks averaged, single round
Together with: 150 mM KCl
Reference: input library
Reading: higher = stronger binding
| Strand | 6-mer enrichment (R) |
| --- | --- |
| UAUCCU | 0.555 |
| UAUGUG | 1.14 |
| ACGCUU | 0.601 |
| AGGGUA | 2.03 |
| CGCUUG | 0.77 |
| UAUUGC | 0.62 |
| GCUAUU | 0.639 |
| GAGUGU | 1.63 |

Study 3
Target: Histone acetyltransferase KAT6A, both winged helices, GST fusion (KAT6A, Homo sapiens, UniProt Q92794, residues 1-181)
Technique: protein binding microarray
Form: double-stranded DNA, one strand shown
Sample: in vitro
Concentration: not given
Setting: 8-mer, flanks averaged, mean of 2 arrays, mostly near background
Reference: not given
Reading: higher = stronger binding
Construct (chain): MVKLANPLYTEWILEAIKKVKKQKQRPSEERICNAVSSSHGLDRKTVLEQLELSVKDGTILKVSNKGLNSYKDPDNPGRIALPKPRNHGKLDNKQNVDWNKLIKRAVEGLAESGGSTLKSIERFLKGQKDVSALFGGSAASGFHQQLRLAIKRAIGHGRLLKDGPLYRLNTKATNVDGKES
| Strand | E-score |
| --- | --- |
| CGAGGCGA | -0.0866 |
| CCACCCCC | -0.14 |
| AGGACCAT | -0.0935 |
| CTCGCACA | 0.0348 |
| AACAACCA | -0.164 |
| AACTTGGT | -0.0496 |
| GGGGCAAA | -0.116 |
| ATGTTATA | 0.0482 |

Further values, each from its own experiment
| SMILES | target | observed | action | concentration | reference | quantity | result |
| --- | --- | --- | --- | --- | --- | --- | --- |
| CCCC(=O)Oc1ccc2[nH]c(C(=O)c3cc4ccccc4[nH]3)cc2c1 | Protein kinase C theta type (PRKCQ, Homo sapiens, UniProt Q04759) | enzyme activity | inhibitor | 0.5 µM | control | remaining activity | 111% |

Some of these lines once more (study 1):
| Strand | fitted relative affinity |
| --- | --- |
| TTTGAACTGGGGACTGGATTAGTGCTA | -0.047 z-score |
| TTAGATCTCAGTATCGACTAGTGCTAG | 0.0503 z-score |
| GACGAACTGGAGTATCGAGACGTGCTA | -0.455 z-score |
